Measurements from different studies.
Protocols differ between the studies behind these lines. ± gives the spread as reported.

O=C(NCc1cccc2[nH]cc(C(=O)C(F)(F)F)c12)c1cn(Cc2ccc(F)cc2)cc(O)c1=O — EC50 (Human betaherpesvirus 5; viral replication, inhibitor; 7 days): 1600 nM
CN(C(=O)c1ccn2ncc(-c3ccc(C(F)(F)F)cc3)c2c1)c1ccc(C#N)cn1 — EC50 (Cryptosporidium parvum; cytopathic effect; HCT-8): 1540 nM
Nc1ncnc2c1c(Br)cn2[C@@H]1O[C@H](CO)[C@@H](O)[C@H]1O — EC50 (Trypanosoma vivax; parasite growth, resazurin; 24 h): 740 nM
CC(=O)CCC1C(=O)NC(C(C)C)C(=O)NC(Cc2cccc(O)c2)C(=O)N2CCCC(N2)C(=O)OC(C(C)=CC=CC(=O)N2CCCCO2)CC=CC=CC(O)C(C)C1O (centres unmarked) — EC50 (hepatitis C virus genotype 1b; luciferase; Huh-5-2 replicon; 4 days): 125 ± 22 nM
CN(C)CCNC(=O)c1cc(-c2ccccc2)nc2ccccc12 — EC50 (Coxsackievirus B3; cytopathic effect; Vero C1008): 300 nM
Cc1cn(C2CC(N(C)C)C(CO)O2)c(=O)[nH]c1=O (centres unmarked) — EC50 (feline herpesvirus; viral replication; CRFK): > 370 nM
CN(C(=O)c1ccn2ncc(-c3ccc(C(N)=O)cc3)c2c1)C1CCC(C#N)CC1 (centres unmarked) — EC50 (Cryptosporidium parvum; cytopathic effect; HCT-8): > 20000 nM
Cc1cccc(-c2cc(C#N)cc(Oc3c(C(F)(F)F)ccn(Cc4n[nH]c(=O)n4C)c3=O)c2)c1 — EC50 (human immunodeficiency virus 1; viral cytopathic effect; MT-4, K103N Y181C mutant): 260 ± 120 nM
Nc1ncnc2c1c(F)cn2[C@@H]1O[C@H](CO)[C@@H](O)[C@H]1O — EC50 (Trypanosoma vivax; parasite growth, resazurin; 24 h): 38 nM
COC(=O)c1cn(Cc2ccc(F)cc2)cc(OC)c1=O — EC50 (Human betaherpesvirus 5; viral replication, inhibitor; 7 days): > 50000 nM
C1CCCCCC2(CCCCC1)OOCCCOO2 — EC50 (Dengue virus; viral replication, inhibitor, luciferase; BHK-21; 72 h, replicon): 9500 nM
C[C@@H](O)[C@H](NC(=O)[C@H](Cc1ccc(O)cc1)NC(=O)[C@@H]1CCCN1C(=O)OCC1c2ccccc2-c2ccccc21)C(=O)N[C@@H](CCCNC(=N)N)C(=O)N[C@@H](CO)C(=O)NCC(=O)N1CCC[C@H]1C(=O)NCC(=O)N[C@@H](Cc1c[nH]c2ccccc12)C(=O)N[C@@H](CO)C(=O)N[C@@H](CO)C(=O)N[C@@H](Cc1c[nH]cn1)C(=O)O — EC50 (bacteriophage T1; phage inactivation, plaque count; 3 h, 37 °C, 50% phages deactivated): > 200 µg/mL
CN(C)c1ccc(C=Nn2c(-c3ccccc3)nc3ccccc3c2=O)cc1 — EC50 (feline herpesvirus; viral replication, MTS; CRFK): > 100 µg/mL
CC(=O)CCC1C(=O)NC(C(C)C)C(=O)NC(Cc2cc(O)cc(F)c2)C(=O)N2CCCC(N2)C(=O)OC(C(C)=CC=CC(=O)N2CCCCO2)CC=CC=CC(O)C(C)C1O (centres unmarked) — EC50 (hepatitis C virus genotype 1b; measured: HCV RNA; Huh-7 replicon; 72 h): 13 ± 1 nM
COc1ccccc1CNC(=O)CSc1c[nH]c2ccccc12 — EC50 (human coronavirus NL63; viral cytopathic effect, MTS; LLC-MK2; 120 h): > 50000 nM
CNC(=O)c1ccc(-c2cnn3ccc(C(=O)N(c4ccc(C#N)cn4)C(C)(C)C)cc23)cc1 — EC50 (Cryptosporidium parvum; cytopathic effect; HCT-8): 1950 ± 340 nM
COc1ccccc1-c1n[nH]c2nc(N[C@H]3CC[C@H](NS(=O)(=O)CC(C)C)CC3)ncc12 — EC50 (Leishmania donovani; LdBOB CRK12 G572D overexpressing, promastigotes): 1.99 ± 0.002 nM

Excerpt of the above:
CN(C)CCNC(=O)c1cc(-c2ccccc2)nc2ccccc12 — EC50 (Coxsackievirus B3; cytopathic effect; Vero C1008): 300 nM
COC(=O)c1cn(Cc2ccc(F)cc2)cc(OC)c1=O — EC50 (Human betaherpesvirus 5; viral replication, inhibitor; 7 days): > 50000 nM
